Published values pooled from the literature.
Numbered parts are unrelated; each lists some results of a single study. “And” joins repeats or separate records; there may be more than shown.
Sequence of UniProt Q8IWQ3 (whole entry, looked up): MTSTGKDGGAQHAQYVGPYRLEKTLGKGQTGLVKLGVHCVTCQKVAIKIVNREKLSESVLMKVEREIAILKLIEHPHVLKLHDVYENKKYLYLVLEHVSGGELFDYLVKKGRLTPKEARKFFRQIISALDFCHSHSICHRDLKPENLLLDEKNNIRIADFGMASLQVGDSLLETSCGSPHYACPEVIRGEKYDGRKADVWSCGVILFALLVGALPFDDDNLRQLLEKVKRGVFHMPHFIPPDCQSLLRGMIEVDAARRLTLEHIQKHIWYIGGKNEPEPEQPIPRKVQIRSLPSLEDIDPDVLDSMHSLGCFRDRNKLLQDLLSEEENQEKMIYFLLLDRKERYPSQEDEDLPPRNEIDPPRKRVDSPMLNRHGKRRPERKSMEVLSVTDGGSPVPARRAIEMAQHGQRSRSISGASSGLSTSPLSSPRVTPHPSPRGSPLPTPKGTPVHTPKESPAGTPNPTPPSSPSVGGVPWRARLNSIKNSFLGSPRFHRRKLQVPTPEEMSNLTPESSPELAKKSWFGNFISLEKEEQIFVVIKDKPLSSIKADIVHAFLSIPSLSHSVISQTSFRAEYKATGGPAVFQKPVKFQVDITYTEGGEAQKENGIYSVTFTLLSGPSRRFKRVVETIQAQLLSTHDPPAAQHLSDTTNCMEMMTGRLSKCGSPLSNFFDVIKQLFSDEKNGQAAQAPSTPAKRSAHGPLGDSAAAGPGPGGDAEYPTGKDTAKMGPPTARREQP
Sequence of UniProt P42336 (whole entry, unmodified, looked up): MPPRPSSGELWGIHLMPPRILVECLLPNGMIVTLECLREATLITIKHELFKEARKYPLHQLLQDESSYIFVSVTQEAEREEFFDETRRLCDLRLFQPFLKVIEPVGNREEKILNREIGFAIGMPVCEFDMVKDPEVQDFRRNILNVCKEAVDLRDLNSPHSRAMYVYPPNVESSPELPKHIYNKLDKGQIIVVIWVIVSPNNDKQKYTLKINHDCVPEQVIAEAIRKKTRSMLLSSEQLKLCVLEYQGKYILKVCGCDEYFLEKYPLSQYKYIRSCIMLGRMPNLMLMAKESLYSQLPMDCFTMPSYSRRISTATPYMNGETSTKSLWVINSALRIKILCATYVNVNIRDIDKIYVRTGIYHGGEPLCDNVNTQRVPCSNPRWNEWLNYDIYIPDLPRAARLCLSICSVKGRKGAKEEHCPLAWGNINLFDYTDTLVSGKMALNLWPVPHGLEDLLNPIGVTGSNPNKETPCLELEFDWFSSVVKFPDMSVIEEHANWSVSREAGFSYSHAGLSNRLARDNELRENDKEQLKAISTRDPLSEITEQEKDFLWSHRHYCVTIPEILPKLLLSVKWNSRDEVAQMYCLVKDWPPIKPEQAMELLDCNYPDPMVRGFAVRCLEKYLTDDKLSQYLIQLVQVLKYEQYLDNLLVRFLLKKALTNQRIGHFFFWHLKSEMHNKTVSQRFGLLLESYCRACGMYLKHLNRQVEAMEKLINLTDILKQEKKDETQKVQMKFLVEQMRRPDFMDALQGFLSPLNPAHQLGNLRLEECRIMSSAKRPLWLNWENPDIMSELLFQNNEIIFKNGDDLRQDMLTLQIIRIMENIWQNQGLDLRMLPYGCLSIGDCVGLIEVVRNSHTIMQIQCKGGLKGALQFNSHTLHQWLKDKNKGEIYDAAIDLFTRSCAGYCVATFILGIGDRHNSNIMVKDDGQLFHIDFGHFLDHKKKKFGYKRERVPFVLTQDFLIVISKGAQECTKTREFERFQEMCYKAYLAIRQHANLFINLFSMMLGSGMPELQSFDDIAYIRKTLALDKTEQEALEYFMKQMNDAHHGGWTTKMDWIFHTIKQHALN
Sequence of UniProt Q13131 (whole entry, looked up): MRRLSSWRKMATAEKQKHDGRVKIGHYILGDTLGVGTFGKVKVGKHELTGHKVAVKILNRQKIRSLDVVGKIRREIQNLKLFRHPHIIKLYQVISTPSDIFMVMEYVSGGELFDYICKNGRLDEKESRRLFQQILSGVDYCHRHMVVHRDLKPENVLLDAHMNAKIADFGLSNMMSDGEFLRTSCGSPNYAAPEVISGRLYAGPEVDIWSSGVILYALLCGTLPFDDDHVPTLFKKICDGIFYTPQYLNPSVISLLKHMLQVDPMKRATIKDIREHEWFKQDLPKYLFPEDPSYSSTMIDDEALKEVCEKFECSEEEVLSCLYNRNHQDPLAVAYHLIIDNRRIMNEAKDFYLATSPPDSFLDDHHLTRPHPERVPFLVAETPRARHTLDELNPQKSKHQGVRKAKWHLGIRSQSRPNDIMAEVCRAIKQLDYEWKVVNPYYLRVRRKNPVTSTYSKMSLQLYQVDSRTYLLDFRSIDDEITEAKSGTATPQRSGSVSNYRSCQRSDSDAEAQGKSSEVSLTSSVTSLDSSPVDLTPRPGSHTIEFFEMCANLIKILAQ

Sample 1 — read-out: enzyme activity; action: inhibitor; concentration: 77 µM; baseline: untreated
Target: DNA polymerase theta, ATPase domain (POLQ, Homo sapiens, UniProt O75417)
Sequence of UniProt O75417 (whole entry, unmodified, looked up): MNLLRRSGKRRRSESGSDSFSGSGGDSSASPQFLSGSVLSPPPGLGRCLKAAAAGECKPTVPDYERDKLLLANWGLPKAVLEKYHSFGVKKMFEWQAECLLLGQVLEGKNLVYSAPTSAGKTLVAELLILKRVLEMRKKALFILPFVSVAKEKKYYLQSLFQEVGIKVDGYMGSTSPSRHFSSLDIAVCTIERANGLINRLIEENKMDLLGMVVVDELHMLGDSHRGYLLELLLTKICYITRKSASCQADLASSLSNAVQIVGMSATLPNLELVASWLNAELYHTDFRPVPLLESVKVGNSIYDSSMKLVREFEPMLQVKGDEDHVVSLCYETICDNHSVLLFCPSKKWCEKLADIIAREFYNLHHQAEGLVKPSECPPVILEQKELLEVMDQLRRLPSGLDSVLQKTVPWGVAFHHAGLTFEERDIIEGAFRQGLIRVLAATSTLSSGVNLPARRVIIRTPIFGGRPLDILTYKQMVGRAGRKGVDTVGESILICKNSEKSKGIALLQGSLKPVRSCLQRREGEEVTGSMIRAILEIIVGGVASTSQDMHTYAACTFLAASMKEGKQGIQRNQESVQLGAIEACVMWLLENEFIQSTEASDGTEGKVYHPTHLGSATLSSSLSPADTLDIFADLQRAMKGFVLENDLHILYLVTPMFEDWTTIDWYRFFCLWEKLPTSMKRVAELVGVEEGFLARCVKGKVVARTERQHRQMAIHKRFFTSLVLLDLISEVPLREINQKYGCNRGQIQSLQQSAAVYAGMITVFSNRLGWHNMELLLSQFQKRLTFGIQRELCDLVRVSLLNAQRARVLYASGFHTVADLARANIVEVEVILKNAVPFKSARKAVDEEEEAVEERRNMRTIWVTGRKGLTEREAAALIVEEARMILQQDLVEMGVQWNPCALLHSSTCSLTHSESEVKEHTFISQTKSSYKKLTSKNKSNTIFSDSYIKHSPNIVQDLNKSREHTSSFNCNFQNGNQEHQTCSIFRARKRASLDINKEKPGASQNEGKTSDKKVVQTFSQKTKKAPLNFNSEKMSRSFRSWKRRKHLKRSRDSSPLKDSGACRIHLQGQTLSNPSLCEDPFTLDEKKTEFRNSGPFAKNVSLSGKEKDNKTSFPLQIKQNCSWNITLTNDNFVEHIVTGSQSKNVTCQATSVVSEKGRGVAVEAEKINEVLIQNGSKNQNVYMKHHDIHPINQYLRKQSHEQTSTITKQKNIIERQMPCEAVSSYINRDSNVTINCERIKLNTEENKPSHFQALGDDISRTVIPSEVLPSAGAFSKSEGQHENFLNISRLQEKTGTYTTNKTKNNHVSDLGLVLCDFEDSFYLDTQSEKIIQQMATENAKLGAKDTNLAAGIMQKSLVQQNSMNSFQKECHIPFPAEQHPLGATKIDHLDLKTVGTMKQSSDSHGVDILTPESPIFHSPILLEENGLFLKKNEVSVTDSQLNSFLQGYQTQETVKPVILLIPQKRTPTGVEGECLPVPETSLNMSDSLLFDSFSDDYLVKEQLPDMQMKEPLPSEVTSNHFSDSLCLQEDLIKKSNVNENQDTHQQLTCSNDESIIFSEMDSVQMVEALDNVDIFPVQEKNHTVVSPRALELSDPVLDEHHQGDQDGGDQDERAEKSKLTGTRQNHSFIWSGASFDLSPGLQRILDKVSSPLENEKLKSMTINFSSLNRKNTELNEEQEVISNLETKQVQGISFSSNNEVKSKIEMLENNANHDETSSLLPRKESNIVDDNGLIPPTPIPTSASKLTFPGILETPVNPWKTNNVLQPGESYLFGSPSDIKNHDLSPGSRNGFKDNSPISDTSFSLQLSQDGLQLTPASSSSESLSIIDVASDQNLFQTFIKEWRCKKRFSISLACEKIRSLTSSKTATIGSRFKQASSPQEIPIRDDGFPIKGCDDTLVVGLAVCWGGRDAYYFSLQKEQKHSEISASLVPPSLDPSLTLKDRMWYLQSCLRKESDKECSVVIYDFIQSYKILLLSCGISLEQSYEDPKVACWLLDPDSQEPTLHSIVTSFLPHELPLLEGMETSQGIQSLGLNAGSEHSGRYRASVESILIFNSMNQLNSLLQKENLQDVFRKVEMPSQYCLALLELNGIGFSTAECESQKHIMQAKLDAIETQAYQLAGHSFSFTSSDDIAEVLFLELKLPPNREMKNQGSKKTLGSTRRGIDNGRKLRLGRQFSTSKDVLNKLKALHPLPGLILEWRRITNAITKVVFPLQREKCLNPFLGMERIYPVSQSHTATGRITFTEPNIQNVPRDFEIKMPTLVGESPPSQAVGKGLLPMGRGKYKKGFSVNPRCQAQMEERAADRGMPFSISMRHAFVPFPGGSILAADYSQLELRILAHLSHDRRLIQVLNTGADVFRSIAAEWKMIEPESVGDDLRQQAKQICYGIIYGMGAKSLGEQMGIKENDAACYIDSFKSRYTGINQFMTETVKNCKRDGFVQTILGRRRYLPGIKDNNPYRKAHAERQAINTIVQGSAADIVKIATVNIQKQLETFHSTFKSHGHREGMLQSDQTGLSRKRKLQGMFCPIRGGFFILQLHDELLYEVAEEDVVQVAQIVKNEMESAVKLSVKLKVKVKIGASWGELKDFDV
With `CC(C(=O)O)c1ccc2c(c1)[nH]c1ccc(Cl)cc12` (stereo not drawn) the remaining activity was 109%.
The remaining activity of `Nc1ccc(S(=O)(=O)Nc2nccs2)cc1` is reported as 107% and 73.8%.
With `N=C(N)c1ccc(N=NNc2ccc(C(=N)N)cc2)cc1` the remaining activity was 102%.
`O=C(CCc1ccc(O)cc1)c1c(O)cc(O)cc1O[C@@H]1O[C@H](CO)[C@@H](O)[C@H](O)[C@H]1O` gave a remaining activity of 96.5%.
The remaining activity of `CCC(C)(Oc1ccc(C2(c3ccc(OC(C)(CC)C(=O)O)cc3)CCCCC2)cc1)C(=O)O` (stereo not drawn) is reported as 66.7%.
`NS(=O)(=O)c1cc(C2(O)NC(=O)c3ccccc32)ccc1Cl` (stereo not drawn) has a remaining activity of 96.2%.
`Cc1n[nH]c(=O)[nH]c1=O` gave a remaining activity of 99.5%.
The remaining activity of `N=C(N)NCCC[C@H](N)C(=O)O` is reported as 94.1%.
With `CN(C)CCN(Cc1ccccc1)c1ccccn1` the remaining activity was 98.7%.
`COc1ccc(CCN(C)CCCC(C#N)(c2cc(OC)c(OC)c(OC)c2)C(C)C)cc1OC` (stereo not drawn) has a remaining activity of 103%.

Sample 2 — read-out: cell-free assay; method: competition with immobilised ligand; concentration: 1 µM
Compound: CN([C@@H]1CCc2c(CC(=O)O)c3cc(S(C)(=O)=O)ccc3n2C1)S(=O)(=O)c1ccc(F)cc1
It gave 78% for remaining binding (PRKCQ (Homo sapiens, UniProt Q04759)).
It gave 89% for remaining binding (MARK1 (Homo sapiens, UniProt Q9P0L2)).
The remaining binding was 100% (TGFBR1 (Homo sapiens, UniProt P36897)).
PIK3CA (Homo sapiens, UniProt P42336, M1043I) — remaining binding: 98%.
EIF2AK1 (Homo sapiens, UniProt Q9BQI3) — remaining binding: 90%.
It gave 100% for remaining binding (CSNK1G3 (Homo sapiens, UniProt Q9Y6M4)).
PIK3C2G (Homo sapiens, UniProt O75747) — remaining binding: 82%.
BRSK2 (Homo sapiens, UniProt Q8IWQ3) — remaining binding: 100%.
For PRKAA1 (Homo sapiens, UniProt Q13131): remaining binding read 85%.
For COQ8A (Homo sapiens, UniProt Q8NI60): remaining binding read 87%.
STK32B (Homo sapiens, UniProt Q9NY57) — remaining binding: 100%.
It gave 94% for remaining binding (DYRK2 (Homo sapiens, UniProt Q92630)).
For MYLK3 (Homo sapiens, UniProt Q32MK0): remaining binding read 100%.
ZAP70 (Homo sapiens, UniProt P43403) — remaining binding: 100%.
The remaining binding was 100% (ULK2 (Homo sapiens, UniProt Q8IYT8)).
For FLT3 (Homo sapiens, UniProt P36888, F691L/ITD): remaining binding read 98%.
The remaining binding was 100% (PIP5K1C (Homo sapiens, UniProt O60331)).
For TESK1 (Homo sapiens, UniProt Q15569): remaining binding read 73%.
EPHA4 (Homo sapiens, UniProt P54764) — remaining binding: 93%.
The remaining binding was 71% (Ribosomal protein S6 kinase alpha-6, N-terminal kinase domain (RPS6KA6, Homo sapiens, UniProt Q9UK32)).
The remaining binding was 100% (Insulin receptor (INSR, Homo sapiens, UniProt P06213)).
ACVRL1 (Homo sapiens, UniProt P37023) — remaining binding: 100%.
PIP4K2C (Homo sapiens, UniProt Q8TBX8) — remaining binding: 100%.
The remaining binding was 100% (CDK18 (Homo sapiens, UniProt Q07002)).
It gave 100% for remaining binding (NEK2 (Homo sapiens, UniProt P51955)).

Sample 3 — read-out: enzyme activity; action: inhibitor; concentration: 0.5 µM; baseline: control
Target: Protein kinase C zeta type (PRKCZ, Homo sapiens, UniProt Q05513)
Construct (Q05513 1-592): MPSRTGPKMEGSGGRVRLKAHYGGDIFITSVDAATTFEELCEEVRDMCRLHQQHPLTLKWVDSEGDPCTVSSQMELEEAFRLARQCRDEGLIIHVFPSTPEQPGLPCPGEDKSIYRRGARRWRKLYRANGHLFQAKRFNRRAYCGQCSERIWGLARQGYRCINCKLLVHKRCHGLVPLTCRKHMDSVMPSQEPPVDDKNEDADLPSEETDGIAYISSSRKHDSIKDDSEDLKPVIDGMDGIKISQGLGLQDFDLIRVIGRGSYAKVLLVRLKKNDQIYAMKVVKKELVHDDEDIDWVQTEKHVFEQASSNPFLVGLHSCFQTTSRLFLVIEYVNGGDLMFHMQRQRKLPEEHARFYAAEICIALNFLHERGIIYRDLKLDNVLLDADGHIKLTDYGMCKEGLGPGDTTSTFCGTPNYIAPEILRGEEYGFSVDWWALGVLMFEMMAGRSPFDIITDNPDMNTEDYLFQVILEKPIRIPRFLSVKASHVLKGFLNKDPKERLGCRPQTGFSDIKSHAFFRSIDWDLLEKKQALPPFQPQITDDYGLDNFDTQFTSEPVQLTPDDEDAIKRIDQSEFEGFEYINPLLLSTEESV
The remaining activity of `Cc1ccc(S(=O)(=O)/C=C/C#N)cc1` is reported as 101%.
With `Oc1cccc(-c2nc(N3CCOCC3)c3oc4ncccc4c3n2)c1` the remaining activity was 99.1%.
The remaining activity of `O=C1Cc2c([nH]c3ccc(Br)cc23)-c2ccccc2N1` is reported as 98.3%.
With `CCCCc1c(-c2ccc(OC)cc2)[nH]c2nccnc12` the remaining activity was 93.9%.
`O=C1NC(=O)c2c1c1c3ccccc3[nH]c1n1cncc21` has a remaining activity of 84.8%.
The remaining activity of `Cc1cc(Nc2cc(N3CCN(C)CC3)nc(Sc3ccc(NC(=O)C4CC4)cc3)n2)[nH]n1` is reported as 76.4%.
The remaining activity of `c1ccc2c(-c3ccncc3)c[nH]c2c1` is reported as 98.3%.

Sample 4 — host: human; sample: microsomes or S9; concentration: 2 µM; time: 0.5 h
`CC(C)(C)OC(=O)N[C@@H](CC(=O)N1CCCN(C(=O)CN2CCC(c3ccccc3)CC2)CC1)Cc1cc(F)c(F)cc1F` has a remaining compound of 0.225%.
With `OC/C=C/Cc1cc2cc(Cl)ccc2n1-c1ncccn1` the remaining compound was 58.3%.
`CCOc1cc2c(cc1C1CC(=O)NCc3nc4sccn4c31)CCC2` (stereo not drawn) gave a remaining compound of 13.4%.
For `O=C(Nc1ccc2nncn2c1)c1cc(Cl)c2c(c1)OCO2`, the remaining compound was 80.9%.
The remaining compound of `CCOc1cccc2c(C)nc(Nc3nc(=O)c4c([nH]3)CCCC4)nc12` is reported as 14.5%.
`O=C(NC1CCOC2(CCS(=O)(=O)C2)C1)c1cccc2cc[nH]c12` (stereo not drawn) gave a remaining compound of over 100%.
For `COc1cccc(CN2CCC(C(=O)N3CCN(Cc4ccc5c(c4)OCO5)CC3)CC2)c1OC`, the remaining compound was 84%.
For `CCNS(=O)(=O)c1cc(-c2ccc(=O)[nH]n2)sc1C`, the remaining compound was 73.5%.
`Cc1cc(=O)c(C(=O)Nc2nc3ccccc3nc2N2CCCC2)nn1-c1ccc(Cl)cc1` has a remaining compound of 88.1%.
For `O=C(c1ccccc1C1CCNC1)N1CCC2(C=Cc3ccccc32)CC1` (stereo not drawn), the remaining compound was 88%.
The remaining compound of `CCN(CC)S(=O)(=O)c1ccc(NC(=O)c2cc(OC)c(OC)c(OC)c2)cc1` is reported as over 100%.
`Cc1ccc2c(c1)C(NC(=O)c1ccc(CS(=O)(=O)c3ccc(Br)cc3)o1)CC1(CCCCC1)O2` (stereo not drawn) gave a remaining compound of 87.1%.

For quick reference, copied from above (sample 4):
`CCOc1cc2c(cc1C1CC(=O)NCc3nc4sccn4c31)CCC2` (stereo not drawn) gave a remaining compound of 13.4%.
With `OC/C=C/Cc1cc2cc(Cl)ccc2n1-c1ncccn1` the remaining compound was 58.3%.
`CC(C)(C)OC(=O)N[C@@H](CC(=O)N1CCCN(C(=O)CN2CCC(c3ccccc3)CC2)CC1)Cc1cc(F)c(F)cc1F` has a remaining compound of 0.225%.
`O=C(NC1CCOC2(CCS(=O)(=O)C2)C1)c1cccc2cc[nH]c12` (stereo not drawn) gave a remaining compound of over 100%.
The remaining compound of `CCN(CC)S(=O)(=O)c1ccc(NC(=O)c2cc(OC)c(OC)c(OC)c2)cc1` is reported as over 100%.
`Cc1cc(=O)c(C(=O)Nc2nc3ccccc3nc2N2CCCC2)nn1-c1ccc(Cl)cc1` has a remaining compound of 88.1%.
